Published values from different studies.
Protocols differ between the studies behind these lines.
DRD2: D(2) dopamine receptor (DRD2, Homo sapiens, UniProt P14416)
Chain of UniProt P14416 (whole entry, looked up): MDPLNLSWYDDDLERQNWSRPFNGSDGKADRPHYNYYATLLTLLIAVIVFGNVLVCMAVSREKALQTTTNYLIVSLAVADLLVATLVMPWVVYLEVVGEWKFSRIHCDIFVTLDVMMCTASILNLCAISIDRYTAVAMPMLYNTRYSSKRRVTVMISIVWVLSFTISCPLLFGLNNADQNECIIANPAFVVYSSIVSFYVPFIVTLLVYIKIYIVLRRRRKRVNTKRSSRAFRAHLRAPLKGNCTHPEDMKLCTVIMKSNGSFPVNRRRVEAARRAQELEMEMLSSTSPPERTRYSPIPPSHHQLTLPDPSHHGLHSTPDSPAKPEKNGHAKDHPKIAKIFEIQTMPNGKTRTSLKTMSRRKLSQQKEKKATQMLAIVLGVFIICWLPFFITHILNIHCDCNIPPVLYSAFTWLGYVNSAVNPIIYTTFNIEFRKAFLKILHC

C/C(=N\OCCCN1CCCCC1)c1ccc(C(F)(F)F)cc1 has an activation of -11.5% (DRD2; agonist, cAMP; 10 µM).
With COc1ccc(F)cc1S(=O)(=O)Nc1cnc2c(c1)C(=O)NCCO2 the inhibition was 3% (DRD2; radioligand binding, inhibitor; 10 µM).
For CN[C@@H]1[C@H](O)[C@H](NC)[C@H]2O[C@]3(O)[C@H](O[C@@H]2[C@H]1O)O[C@H](C)C[C@H]3NC(=O)Cc1cc(Cl)ccn1, the inhibition was -1% (DRD2; 10 µM).
Cc1cc(-c2ccc3ccccc3c2)nnc1NCCN1CCN(C)CC1 — result for antagonist activity: “negative” (DRD2; antagonist; concentration not given).
Cc1cc(Nc2nc(C[C@@]3(C(=O)O)CCN(Cc4cccc(Cl)c4F)[C@H](C)C3)cc(C)c2F)[nH]n1 gave an activation of 1.11% (DRD2; agonist; 10 µM).
N[C@H](C(=O)N1CCCC1)C1CCN(c2nccc3c(-c4ncc(Cl)cc4Cl)cccc23)CC1 has a response of 30% (D(2) dopamine receptor, short isoform (DRD2, Homo sapiens, UniProt P14416); functional response, agonist; 10 µM).
For Cc1ccc2c(n1)c(-c1cccc(S(C)(=O)=O)c1)c(C)n2C/C(F)=C/CN, the inhibition was 5% (DRD2; ligand displacement, radioligand; 10 µM).
With Cc1sc2c(c1C)C(c1ccc(Cl)cc1)=NC(CC(=O)OC(C)(C)C)c1nnc(C)n1-2 (centres unmarked) the specific binding was 102% (DRD2; antagonist radioligand binding; 1 µM).

Excerpt of the above:
C/C(=N\OCCCN1CCCCC1)c1ccc(C(F)(F)F)cc1 has an activation of -11.5% (DRD2; agonist, cAMP; 10 µM).
